Measurements pooled from the literature.
± gives the spread as reported.

CC/C(=C(\c1ccc(O)cc1)c1ccc(OCCN(C)CCOCCOCCN(C)CCOc2ccc(/C(=C(/CC)c3ccccc3)c3ccc(O)cc3)cc2)cc1)c1ccccc1 — cell density (U2OS transfected with ERβ; 10 µM, cytotoxicity): 78%
OCC1CSC(c2ccc(O)cc2O)S1 (centres unmarked) — viability (B16-F10; MTT; 25 µM, 24 h; baseline: untreated): 97.4%
Cc1ccc(S(=O)(=O)Nn2c3c(cc(-c4nc5ccccc5s4)c2=O)CCCCCC3)cc1 — maximum non-toxic concentration (HEp-2; trypan blue; 72 h): 130 µg/mL
Cc1cc(C#N)cc(C)c1Oc1nc(NC2CCN(Cc3cccc(F)c3)CC2)nc2ccccc12 — CC50 (TZM-bl; cell growth or viability, XTT): > 0.26 µM
Nc1c(C(=O)c2ccc(Cl)cc2)sc(S)c1-c1nc2ccccc2s1 — maximum non-toxic concentration (HEp-2; cytotoxicity; 72 h): 80 µg/mL
Cc1cc(C#N)cc(C)c1Oc1nc(NC2CCN(Cc3ccncc3)CC2)nc2ccccc12 — CC50 (TZM-bl; cell growth or viability, XTT): > 0.269 µM
O=C1C[C@H](c2ccc(O)c(O)c2)c2c(cc(O)c3c2O[C@H](c2ccc(O)c(O)c2)[C@H](O)C3)O1 — cytotoxic concentration (rat L6 myotubes; cell viability, MTT; 2% FBS): 10 µg/mL
Cc1ccc(C(=O)c2sc(S)c(-c3nc4ccccc4s3)c2N)cc1 — maximum non-toxic concentration (HEp-2; cytotoxicity; 72 h): 90 µg/mL
CC(=O)N[C@H](C(=O)N[C@H](C(=O)N[C@@H](CCCNC(=N)N)C(=O)N1Cc2ccccc2C[C@H]1C(=O)N[C@@H](Cc1ccccc1)C(N)=O)C1CCCCC1)C(C)C — cytokine level (human PBMC; Bio-Plex multiplex, measured: G-CSF; 250 µg/mL, 24 h): 9.6 ± 12.8 pg/mL
CNc1c(C)n(C)n(-c2ccccc2)c1=O — mRNA level (HepaRG PXR knockout; measured: CYP2C19; 300 µM, 72 h; baseline: untreated): increased
Cc1nn(-c2ccc(S(=O)(=O)N[C@H](CO)CC(C)C)cc2)c2nn3nnnc3nc12 — tail DNA (human peripheral blood lymphocytes; DNA damage, alkaline comet; 2 µM, 24 h): 27.8 ± 3.12%
C=C1CC[C@@H]2Cc3c(O)c(C(=O)/C=C/c4ccccc4)c(OC)c(C)c3O[C@@]2(C)CC[C@@H]2[C@@H]1CC2(C)C — CC50 (HEp-2; cell growth or viability): > 50 µM
OC[C@H]1O[C@@H](Oc2ccc(O)cc2)[C@H](O)[C@@H](O)[C@@H]1O — cytotoxicity (B16-F10; CCK-8; 200 µM, 72 h): not toxic
CC(=O)O[C@@H]1[C@@H](OC(C)=O)[C@H](Sc2sc(C(=O)c3ccc(Br)cc3)c(N)c2-c2nc3ccccc3s2)OC[C@H]1OC(C)=O — maximum non-toxic concentration (HEp-2; cytotoxicity; 72 h): 100 µg/mL
C=C(c1ccc(C(=O)O)c(F)c1)c1cc2c(cc1C)C(C)(C)C=CC2(C)C — lowest effective concentration (TK6; cytotoxicity, GreenScreen; without S9): 1.06 µg/mL
CC1(C)C(/C=C/C2=C(Cl)C(=C/C=C3/N(CCCCCC(=O)O)c4ccccc4C3(C)C)/C[N+](C)(C)C2)=[N+](CCCCCC(=O)O)c2ccccc21 — highest non-cytotoxic concentration (U-87 MG; cell viability, AlamarBlue; 72 h in dark, 10% FBS, tested up to 80 µM): ≥ 80 µM
Nc1ccn([C@@H]2O[C@H](CO)[C@@H](O)[C@H]2F)c(=O)n1 — CC50 (SNB-78; sulforhodamine B; 11 days, galactose medium): 26 µM
[99Tc+].[C-]#[N+]CC(C)(C)OC.[C-]#[N+]CC(C)(C)OC.[C-]#[N+]CC(C)(C)OC.[C-]#[N+]CC(C)(C)OC.[C-]#[N+]CC(C)(C)OC.[C-]#[N+]CC(C)(C)OC — basolateral efflux (rat sandwich-cultured hepatocytes; 20 min, culture day 4; baseline: preloaded amount): 40.5 ± 7.6%
O=c1ccn([C@@H]2O[C@H](CO)[C@@H](O)[C@H]2F)c(=O)[nH]1 — cytotoxicity (human cell line panel; up to 250 µM, 11 d): not toxic
[Cl-].[Cl-].[Mn+2].c1ccc(CN2CCCNCCN(Cc3ccccc3)CCCNCC2)cc1 — IC50 (THP-1; cell growth or viability): > 19 µM
Cc1cc(C#N)cc(C)c1Oc1nc(NC2CCN(Cc3ccc(S(=O)(=O)NC4CC4)cc3)CC2)nc2ccccc12 — CC50 (TZM-bl; cell growth or viability, XTT): > 0.215 µM
Cc1nc2cccc(OCC(C)(C)C(=O)NC(C)C)c2c(N)c1C(=O)[O-].[Na+] — relative mitotic index (human peripheral blood lymphocytes; 500 µg/mL, all three test conditions): ≥ 75%
CC(C)=C1CC[C@]2(COC(=O)c3ccccc3)[C@@H](OC(=O)c3ccccc3)/C=C(\C)CC[C@@H]3O[C@@]3(C)C[C@@H](OC(=O)c3cccnc3)[C@@H]12 — viability (HepG2; cell growth or viability, CCK-8; 40 µM, 24 h): 87.7%
Cc1cc(C#N)cc(C)c1Oc1nc(NC2CCN(Cc3ccc(Cl)cc3)CC2)nc2ccccc12 — CC50 (TZM-bl; cell growth or viability, XTT): > 0.251 µM
COc1ccc(NC(=O)N2CCCN3CCC(c4ccc(C#Cc5ccccc5)cc4)C3C2)cc1 (centres unmarked) — efflux ratio (MDCK-MDR1; baseline: B-A over A-B): 2.84
CC[N+]1=C(/C=C/c2ccc(OC(C)C)cc2)C(C)(C)c2c1ccc1ccccc21 — cell membrane permeability (BEAS-2B; 5 µM, 30 min, 37 °C): 18.2%
c1ccc(CN2CCNCCN(Cc3ccccc3)CCNCC2)cc1 — IC50 (THP-1; cell growth or viability): > 25 µM
C=CC(=O)N1CCCC(n2c(=O)c3ncccc3n(Cc3ccc(Oc4ccccc4)cc3)c2=O)C1 (centres unmarked) — intracellular/extracellular ratio (HCT-116 and Rec1; 0.2 µM; baseline: intracellular over extracellular): ~5
COc1ccccc1NC(=O)OC1C(C)C(OC)C=COC2(C)Oc3c(C)c(O)c4c(c3C2=O)C2=NC3(CCN(CC(C)C)CC3)NC2=C(NC(=O)C(C)=CC=CC(C)C(O)C(C)C(O)C1C)C4=O (centres unmarked) — intracellular/extracellular ratio (THP-1 derived macrophages; baseline: intracellular over extracellular): 140
Nc1ncnc2c1ncn2[C@@H]1O[C@H](CO)[C@@H](O)[C@H]1F — CC50 (iCell cardiomyocytes; sulforhodamine B; 11 days, galactose medium): > 250 µM
OC[C@H]1O[C@@H](OCCCC(F)(F)C(F)(F)C(F)(F)C(F)(F)F)[C@H](O)[C@@H](O)[C@@H]1O — EC50 (B16-F10; cytotoxicity, MTT; 24 h): > 250 µM
CNCc1ccc2c(c1)N(C(=O)OCc1ccccc1)[C@H](CNC(=N)N)[C@H]2NC(=O)C(=O)Nc1ccc(Cl)c(F)c1 — cytotoxic concentration (TZM-bl; cell proliferation; 72 h): ≥ 50 µM
CCCCn1cc(C(=O)O)c(=O)c2cc(F)c(N)c([N+](=O)[O-])c21 — IC50 (SW-620; cell growth or viability, SRB): 193 µM
CC(C)=CCCC(C)C1CCC2(C)C3=C(CCC12C)C1(C)CCC(=O)C(C)(C)C1CC3 (centres unmarked) — inhibition (HCT-15; cell growth or viability, SRB; 50 µM): 12.2%
CC#N.[Cl][Mn-2]([Cl])([Cl])[Cl].[Mn+2].c1ccc(CN2CCCN3CCCN(CCCN(Cc4ccccc4)CC3)CC2)cc1 — IC50 (THP-1; cell growth or viability): 3.49 µM
CC/C(=C(\c1ccc(O)cc1)c1ccc(OCCN(C)CCOCCOCCOCCOCCOCCOCCOCCOCCOCCOCCOCCN(C)CCOc2ccc(/C(=C(/CC)c3ccccc3)c3ccc(O)cc3)cc2)cc1)c1ccccc1 — cell density (U2OS transfected with ERβ; 10 µM, cytotoxicity): 7%
C=CC(=O)Nc1cc(Nc2ncnc(Nc3ccccc3C(C)(C)O)n2)c(OC)cc1N(C)CCN(C)C — CLint (human hepatocytes): 34 (µL/min)/(10⁶ cells)
O=c1[nH]cc(C(c2ccccc2Br)c2c[nH]c(=O)[nH]c2=O)c(=O)[nH]1 — cytotoxicity (Ba/F3; 1 µg/mL): not toxic

A few entries again:
CC(C)=CCCC(C)C1CCC2(C)C3=C(CCC12C)C1(C)CCC(=O)C(C)(C)C1CC3 (centres unmarked) — inhibition (HCT-15; cell growth or viability, SRB; 50 µM): 12.2%
OC[C@H]1O[C@@H](Oc2ccc(O)cc2)[C@H](O)[C@@H](O)[C@@H]1O — cytotoxicity (B16-F10; CCK-8; 200 µM, 72 h): not toxic
C=CC(=O)Nc1cc(Nc2ncnc(Nc3ccccc3C(C)(C)O)n2)c(OC)cc1N(C)CCN(C)C — CLint (human hepatocytes): 34 (µL/min)/(10⁶ cells)
Cc1ccc(S(=O)(=O)Nn2c3c(cc(-c4nc5ccccc5s4)c2=O)CCCCCC3)cc1 — maximum non-toxic concentration (HEp-2; trypan blue; 72 h): 130 µg/mL
COc1ccccc1NC(=O)OC1C(C)C(OC)C=COC2(C)Oc3c(C)c(O)c4c(c3C2=O)C2=NC3(CCN(CC(C)C)CC3)NC2=C(NC(=O)C(C)=CC=CC(C)C(O)C(C)C(O)C1C)C4=O (centres unmarked) — intracellular/extracellular ratio (THP-1 derived macrophages; baseline: intracellular over extracellular): 140
CC1(C)C(/C=C/C2=C(Cl)C(=C/C=C3/N(CCCCCC(=O)O)c4ccccc4C3(C)C)/C[N+](C)(C)C2)=[N+](CCCCCC(=O)O)c2ccccc21 — highest non-cytotoxic concentration (U-87 MG; cell viability, AlamarBlue; 72 h in dark, 10% FBS, tested up to 80 µM): ≥ 80 µM
